Published values from different studies.
Each line is one published result; not all experiments were run side by side. “And” joins repeats or separate records; there may be more than shown. pEC50, pIC50: −log10 of the molar value.

CC1=C(Cc2cn(CCO)nn2)C(=O)c2ccccc2C1=O — killing (Schistosoma mansoni; adult worms; 25 µM, 72 h): 66.7%
CCn1cc(-c2cc(Cn3ccoc3=N)cc3c2CCN([C@@H](C)c2cc(OC)ccn2)C3=O)c(C(F)(F)F)n1 — pEC50 (KMS-26; cell growth, inhibitor; 120 h): 8.45
O=C(/C=C/C=C/C=C/C1CCCCC1)NC1=C[C@@](O)(/C=C/C=C/C=C/C(=O)NC2=C(O)CCC2=O)[C@@H]2O[C@@H]2C1=O — GI50 (HCC44; cell growth, CellTiter-Glo; 78 h): 24600 nM
CC1=C(Cn2ccnc2[N+](=O)[O-])C(=O)c2ccccc2C1=O — killing (Schistosoma mansoni; adult worms; 25 µM, 72 h): 71.3%
CC(C)n1ncc2c(C(=O)NCC3(C)CNC3)cc(C3CC3)nc21 — cell protection (Enterovirus D68; cytopathic effect; RD, US/IL/14-18952; 50 nM): -1.08% and -1.22%
N=C(N)Nc1ccc(C(=O)Oc2ccc3cc(C(=N)N)ccc3c2)cc1 — inhibition (Nedd8-cullin1 interaction; neddylation, AlphaScreen; 100 µM): -4.3%
O=C(O)CNC(=O)Cc1ccccc1 — sarcomere length (ventricular cardiomyocytes, C57BL/6 mouse; dose not given, 0.48 s): 1.66 µm
Cn1cc(-c2ccc(-c3cncc(Cl)c3N3CCC4(CCNC4=O)CC3)cc2)cn1 — log2 fold change (COLO 205; gene expression, microarray, measured: KLF8 mRNA; concentration not given, 2 h; reference: untreated cells): 1.1
CC(C)(Oc1ccc(CCNC(=O)c2ccc(Cl)cc2)cc1)C(=O)O — inhibition (Nedd8-cullin1 interaction; neddylation, AlphaScreen; 100 µM): 77.3%
CC(C)NCC(O)c1ccc(O)c(O)c1 (centres unmarked) — sarcomere length (ventricular cardiomyocytes, C57BL/6 mouse; dose not given, 0.552 s): 1.51 µm
CC1=C(Cc2cn(CCN3CCNCC3)nn2)C(=O)c2ccccc2C1=O — killing (Schistosoma mansoni; adult worms; 10 µM, 48 h): 50%
CC[C@]1(O)C[C@H]2CN(CCc3c([nH]c4ccccc34)[C@@](C(=O)OC)(c3cc4c(cc3OC)N(C=O)[C@H]3[C@@](O)(C(=O)OC)[C@H](OC(C)=O)[C@]5(CC)C=CCN6CC[C@]43[C@@H]65)C2)C1 — pIC50 (HD-MB03; cell growth; 168 h, DMSO): 7.72
C[C@H](Oc1ccc(Br)cc1-c1ccon1)C(=O)O — difference from placebo (first response peak; human, tibialis anterior muscle; 400 mg, 30-15 Hz, SAD): 5.34%
C[C@H]1c2cccc(O)c2C(=O)C2=C(O)[C@]3(O)C(=O)C(C(N)=O)=C(O)[C@@H](N(C)C)[C@@H]3[C@@H](O)[C@@H]21 — total adult worm count (Brugia malayi; SCID mouse; dose not given, 6 weeks post-treatment, dosing x42d): 62
Cc1cnc(C(=O)O)c[n+]1[O-] — inhibition (Nedd8-cullin1 interaction; neddylation, AlphaScreen; 100 µM): 97.7%
CC1=C(Cn2cc(COC3COC3)nn2)C(=O)c2ccccc2C1=O — killing (Schistosoma mansoni; adult worms; 10 µM, 72 h): 48%
CN1CCN(c2ccc(-c3ccc4nncc(Nc5cnccn5)c4c3)cc2)CC1 — phenotypic severity score (Schistosoma mansoni; adult worms; 10 µM, 24 h; direction not given): 0
N#Cc1ccn2c(-c3ccncc3)c(-c3ccc(F)cc3)nc2c1 — log2 fold change (kinase binding, competitor, MIB/MS competition, measured: YPK1; Candida albicans cell lysate; 1 µM; reference: DMSO): 0.148
CC1=C(Cn2cc(C(C)(C)O)nn2)C(=O)c2ccccc2C1=O — killing (Schistosoma mansoni; adult worms; 25 µM, 24 h): 43.9%
O=S(=O)(c1cccc2cnccc12)N1CCCNCC1 — inhibition (Nedd8-cullin1 interaction; neddylation, AlphaScreen; 100 µM): 6.6%
CN(C)c1ccc(O)c2c1C[C@H]1C[C@H]3[C@H](N(C)C)C(O)=C(C(N)=O)C(=O)[C@@]3(O)C(O)=C1C2=O — median microfilaria count (Brugia malayi; SCID mouse, peritoneal cavity; dose not given, 6 weeks post-treatment, dosing x28d): 0 microfilariae per mouse
COc1ccc(Nc2cnnc3cc(-c4ccc(N5CCN(C)CC5)cc4)ccc23)cc1 — phenotypic severity score (Schistosoma mansoni; adult worms; 10 µM, 24 h; direction not given): 0
NC(=O)c1cnc2[nH]ccc2c1N[C@@H]1[C@@H]2CC3C[C@H]1C[C@@](O)(C3)C2 — percent change (CD4+ naive T cells, flow cytometry; Caucasian humans, peripheral blood; 200 mg single dose; reference: baseline): -1.58%
COc1cnc2cccc(N3CCc4c(cc(Cn5ccnc5C)cc4-c4cn(C)nc4C(F)(F)F)C3=O)c2c1 — pEC50 (TE-5; cell growth, inhibitor; 120 h): 4.67
CS(=O)(=O)c1ccc(C(=O)Nc2ccc(Cl)c(-c3ccccn3)c2)c(Cl)c1 — IC50 (HD-MB03; 168 h): inactive
COc1ccc(Nc2cnnc3ccc(-c4ccc(N5CCN(C)CC5)cc4)cc23)cc1Cl — phenotypic severity score (Schistosoma mansoni; adult worms; 10 µM, 48 h; direction not given): 0
CCN(CC)CCNC(=O)c1ccc(N)cc1 — inhibition (Nedd8-cullin1 interaction; neddylation, AlphaScreen; 100 µM): 13.3%
COc1ccc(Nc2cnnc3ccc(-c4ccc(N5CCN(C)CC5)cc4)cc23)cc1 — phenotypic severity score (Schistosoma mansoni; adult worms; 10 µM, 24 h; direction not given): 4
C1CNCCN1.COc1cc(/C=C/C(=O)O)ccc1O.COc1cc(/C=C/C(=O)O)ccc1O — inhibition (Nedd8-cullin1 interaction; neddylation, AlphaScreen; 100 µM): -23.1%
CC1=C(Cc2cn(CC#N)nn2)C(=O)c2ccccc2C1=O — killing (Schistosoma mansoni; adult worms; 25 µM, 72 h): 47%
c1ccc(CN(CC2=NCCN2)c2ccccc2)cc1 — inhibition (Nedd8-cullin1 interaction; neddylation, AlphaScreen; 100 µM): -3.8%
CC1=C(Cc2cn(CCN3CCC(F)(F)CC3)nn2)C(=O)c2ccccc2C1=O — killing (Schistosoma mansoni; adult worms; 10 µM, 24 h): 37%
CC[C@@]1(O)C(=O)OCc2c1cc1n(c2=O)Cc2cc3c(CN(C)C)c(O)ccc3nc2-1 — pIC50 (HD-MB03; cell growth; 168 h, DMSO): 6.34
CN1CCN(c2ccc(-c3ccc4nncc(Nc5ncccn5)c4c3)cc2)CC1 — phenotypic severity score (Schistosoma mansoni; adult worms; 10 µM, 5 h; direction not given): 0
OC(CCN1CCCCC1)(c1ccccc1)C1CC2C=CC1C2 (centres unmarked) — change in EEG Alpha2-power Pz-O1 (resting-state EEG; healthy elderly humans; oral, 4 mg, eyes open, LS mean; reference: baseline): 24.9%
COc1ccc(Nc2cnnc3cc(-c4cnc(N5CCN(C)CC5)nc4)ccc23)cc1 — phenotypic severity score (Schistosoma mansoni; adult worms; 10 µM, 24 h; direction not given): 0
CCn1cc(-c2cc(Cn3ccnc3)cc3c2CCN([C@H](c2cc(OC)ccn2)C2CC2)C3=O)c(C(F)(F)F)n1 — pEC50 (SK-MEL-24; cell growth, inhibitor; 120 h): < 4.52
CN1CCN(c2ncc(-c3ccc4nncc(Nc5ncccn5)c4c3)cn2)CC1 — phenotypic severity score (Schistosoma mansoni; adult worms; 10 µM, 5 h; direction not given): 0
CC1=C(Cn2cc(CO)nn2)C(=O)c2ccccc2C1=O — killing (Schistosoma mansoni; adult worms; 25 µM, 72 h): 57.9%
COc1ccc(Nc2cnnc3cc(-c4cnc(N5CCCN(C)CC5)nc4)ccc23)cc1Cl — phenotypic severity score (Schistosoma mansoni; adult worms; 10 µM, 24 h; direction not given): 0
CCC[C@H](N[C@@H](C)C(=O)N1[C@H](C(=O)O)C[C@@H]2CCCC[C@@H]21)C(=O)OCC — inhibition (Nedd8-cullin1 interaction; neddylation, AlphaScreen; 100 µM): 4.6%

A few entries again:
CS(=O)(=O)c1ccc(C(=O)Nc2ccc(Cl)c(-c3ccccn3)c2)c(Cl)c1 — IC50 (HD-MB03; 168 h): inactive
COc1ccc(Nc2cnnc3ccc(-c4ccc(N5CCN(C)CC5)cc4)cc23)cc1Cl — phenotypic severity score (Schistosoma mansoni; adult worms; 10 µM, 48 h; direction not given): 0
CCN(CC)CCNC(=O)c1ccc(N)cc1 — inhibition (Nedd8-cullin1 interaction; neddylation, AlphaScreen; 100 µM): 13.3%
COc1ccc(Nc2cnnc3ccc(-c4ccc(N5CCN(C)CC5)cc4)cc23)cc1 — phenotypic severity score (Schistosoma mansoni; adult worms; 10 µM, 24 h; direction not given): 4
C1CNCCN1.COc1cc(/C=C/C(=O)O)ccc1O.COc1cc(/C=C/C(=O)O)ccc1O — inhibition (Nedd8-cullin1 interaction; neddylation, AlphaScreen; 100 µM): -23.1%
CC1=C(Cc2cn(CC#N)nn2)C(=O)c2ccccc2C1=O — killing (Schistosoma mansoni; adult worms; 25 µM, 72 h): 47%
